Assay results from different studies.
Lines come from different studies, so protocols differ. ± marks the error that the study gave.
ITK SH2 domain: Tyrosine-protein kinase ITK/TSK, SH2 domain (ITK, Homo sapiens, UniProt Q08881)
UniProt Q08881, sequence (whole entry, looked up): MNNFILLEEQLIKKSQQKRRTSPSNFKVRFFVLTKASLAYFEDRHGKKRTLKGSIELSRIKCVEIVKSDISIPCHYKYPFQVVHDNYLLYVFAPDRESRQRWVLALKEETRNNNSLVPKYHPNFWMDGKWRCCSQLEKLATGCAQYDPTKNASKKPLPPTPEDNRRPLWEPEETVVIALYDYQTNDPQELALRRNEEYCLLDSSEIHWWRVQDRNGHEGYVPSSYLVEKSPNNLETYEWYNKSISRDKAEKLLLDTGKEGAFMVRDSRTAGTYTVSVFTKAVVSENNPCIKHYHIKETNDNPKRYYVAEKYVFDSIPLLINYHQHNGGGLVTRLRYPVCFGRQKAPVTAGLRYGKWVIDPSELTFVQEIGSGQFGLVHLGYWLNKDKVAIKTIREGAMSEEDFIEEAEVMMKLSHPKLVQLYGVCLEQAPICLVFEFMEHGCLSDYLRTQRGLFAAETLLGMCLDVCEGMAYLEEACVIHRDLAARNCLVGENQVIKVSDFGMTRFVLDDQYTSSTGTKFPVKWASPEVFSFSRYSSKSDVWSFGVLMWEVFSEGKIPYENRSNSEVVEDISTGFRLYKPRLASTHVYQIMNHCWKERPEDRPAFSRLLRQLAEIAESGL
USP51 ZnF-UBD domain: Ubiquitin carboxyl-terminal hydrolase 51, ZnF-UBD domain (USP51, Homo sapiens, UniProt Q70EK9)
UniProt Q70EK9, sequence (whole entry, looked up): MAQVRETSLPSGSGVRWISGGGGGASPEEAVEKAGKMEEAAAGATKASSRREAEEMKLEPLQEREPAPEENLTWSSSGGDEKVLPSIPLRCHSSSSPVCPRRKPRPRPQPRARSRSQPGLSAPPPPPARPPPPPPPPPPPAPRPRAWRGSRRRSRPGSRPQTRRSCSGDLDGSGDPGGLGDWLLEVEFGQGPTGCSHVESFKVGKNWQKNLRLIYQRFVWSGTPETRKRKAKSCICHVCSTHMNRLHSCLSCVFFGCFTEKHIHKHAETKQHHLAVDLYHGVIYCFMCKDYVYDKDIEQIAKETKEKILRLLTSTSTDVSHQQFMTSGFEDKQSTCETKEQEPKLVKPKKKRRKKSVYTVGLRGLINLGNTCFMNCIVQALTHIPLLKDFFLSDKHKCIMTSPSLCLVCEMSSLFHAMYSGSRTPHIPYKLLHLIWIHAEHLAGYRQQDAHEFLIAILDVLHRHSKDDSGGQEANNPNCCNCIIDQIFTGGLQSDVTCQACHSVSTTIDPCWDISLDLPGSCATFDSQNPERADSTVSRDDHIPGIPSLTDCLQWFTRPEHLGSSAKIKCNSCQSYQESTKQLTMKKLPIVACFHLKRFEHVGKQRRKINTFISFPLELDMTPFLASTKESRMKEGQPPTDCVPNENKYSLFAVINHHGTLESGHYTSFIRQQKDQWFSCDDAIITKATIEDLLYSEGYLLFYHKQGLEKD
qscR DNA-bound dimer: qscR, DNA-bound dimer (Pseudomonas aeruginosa, UniProt G3XD77)
BCAR3 SH2 domain: Breast cancer anti-estrogen resistance protein 3, SH2 domain (BCAR3, Homo sapiens, UniProt O75815)
UniProt O75815, sequence (whole entry, looked up): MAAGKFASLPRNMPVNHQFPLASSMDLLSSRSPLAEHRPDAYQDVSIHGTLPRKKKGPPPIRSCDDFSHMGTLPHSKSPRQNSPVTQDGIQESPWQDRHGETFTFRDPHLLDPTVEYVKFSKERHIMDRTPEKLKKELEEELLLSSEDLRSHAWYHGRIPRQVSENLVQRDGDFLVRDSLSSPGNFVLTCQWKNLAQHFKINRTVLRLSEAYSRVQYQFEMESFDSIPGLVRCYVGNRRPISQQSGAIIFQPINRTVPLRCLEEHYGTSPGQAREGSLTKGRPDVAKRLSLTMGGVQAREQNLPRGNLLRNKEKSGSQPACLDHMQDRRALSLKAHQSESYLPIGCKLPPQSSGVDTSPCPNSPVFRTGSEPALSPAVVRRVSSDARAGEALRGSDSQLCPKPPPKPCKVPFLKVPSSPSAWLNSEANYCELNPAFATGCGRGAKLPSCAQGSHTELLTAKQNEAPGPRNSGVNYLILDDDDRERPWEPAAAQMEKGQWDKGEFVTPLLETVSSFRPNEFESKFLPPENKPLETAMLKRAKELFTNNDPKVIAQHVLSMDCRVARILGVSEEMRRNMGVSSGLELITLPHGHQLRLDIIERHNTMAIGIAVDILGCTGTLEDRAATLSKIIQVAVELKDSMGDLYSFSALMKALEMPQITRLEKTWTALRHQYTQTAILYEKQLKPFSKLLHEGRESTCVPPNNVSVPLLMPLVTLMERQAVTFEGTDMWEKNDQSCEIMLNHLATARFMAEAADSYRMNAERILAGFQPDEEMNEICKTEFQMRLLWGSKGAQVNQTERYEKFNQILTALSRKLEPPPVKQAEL
ABL2 SH2 domain: Tyrosine-protein kinase ABL2, SH2 domain (ABL2, Homo sapiens, UniProt P42684)
UniProt P42684, sequence (whole entry, looked up): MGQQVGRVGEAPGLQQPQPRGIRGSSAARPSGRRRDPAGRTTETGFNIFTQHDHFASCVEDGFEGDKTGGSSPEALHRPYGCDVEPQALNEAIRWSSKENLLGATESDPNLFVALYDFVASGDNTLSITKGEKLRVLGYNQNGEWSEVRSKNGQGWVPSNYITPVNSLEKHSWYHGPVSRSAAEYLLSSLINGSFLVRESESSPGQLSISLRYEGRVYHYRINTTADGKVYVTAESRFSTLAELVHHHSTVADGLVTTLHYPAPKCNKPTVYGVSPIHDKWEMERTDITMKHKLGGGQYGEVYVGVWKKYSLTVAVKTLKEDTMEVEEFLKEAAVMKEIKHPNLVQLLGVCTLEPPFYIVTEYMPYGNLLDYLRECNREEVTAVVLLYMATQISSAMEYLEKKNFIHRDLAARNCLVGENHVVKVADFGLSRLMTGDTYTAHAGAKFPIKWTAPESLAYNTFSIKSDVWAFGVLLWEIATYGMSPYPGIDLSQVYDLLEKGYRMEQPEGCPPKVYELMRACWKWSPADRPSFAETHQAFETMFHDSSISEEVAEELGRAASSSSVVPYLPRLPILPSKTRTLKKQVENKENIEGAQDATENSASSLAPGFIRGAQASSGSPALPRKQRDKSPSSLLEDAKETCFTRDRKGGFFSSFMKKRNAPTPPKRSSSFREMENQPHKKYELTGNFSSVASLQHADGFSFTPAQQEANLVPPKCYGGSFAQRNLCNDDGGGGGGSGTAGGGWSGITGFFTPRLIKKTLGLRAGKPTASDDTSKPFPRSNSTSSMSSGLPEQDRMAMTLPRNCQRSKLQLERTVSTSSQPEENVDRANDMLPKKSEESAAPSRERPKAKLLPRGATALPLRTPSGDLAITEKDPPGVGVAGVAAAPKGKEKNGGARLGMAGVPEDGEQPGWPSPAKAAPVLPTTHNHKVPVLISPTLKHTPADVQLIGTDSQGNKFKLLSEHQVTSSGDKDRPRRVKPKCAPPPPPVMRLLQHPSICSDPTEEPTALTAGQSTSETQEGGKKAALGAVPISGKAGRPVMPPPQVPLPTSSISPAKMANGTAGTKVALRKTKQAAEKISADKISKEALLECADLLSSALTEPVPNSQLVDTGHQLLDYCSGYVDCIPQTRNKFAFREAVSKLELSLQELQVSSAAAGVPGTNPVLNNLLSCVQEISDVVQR
UniProt Q16620, sequence (whole entry, looked up): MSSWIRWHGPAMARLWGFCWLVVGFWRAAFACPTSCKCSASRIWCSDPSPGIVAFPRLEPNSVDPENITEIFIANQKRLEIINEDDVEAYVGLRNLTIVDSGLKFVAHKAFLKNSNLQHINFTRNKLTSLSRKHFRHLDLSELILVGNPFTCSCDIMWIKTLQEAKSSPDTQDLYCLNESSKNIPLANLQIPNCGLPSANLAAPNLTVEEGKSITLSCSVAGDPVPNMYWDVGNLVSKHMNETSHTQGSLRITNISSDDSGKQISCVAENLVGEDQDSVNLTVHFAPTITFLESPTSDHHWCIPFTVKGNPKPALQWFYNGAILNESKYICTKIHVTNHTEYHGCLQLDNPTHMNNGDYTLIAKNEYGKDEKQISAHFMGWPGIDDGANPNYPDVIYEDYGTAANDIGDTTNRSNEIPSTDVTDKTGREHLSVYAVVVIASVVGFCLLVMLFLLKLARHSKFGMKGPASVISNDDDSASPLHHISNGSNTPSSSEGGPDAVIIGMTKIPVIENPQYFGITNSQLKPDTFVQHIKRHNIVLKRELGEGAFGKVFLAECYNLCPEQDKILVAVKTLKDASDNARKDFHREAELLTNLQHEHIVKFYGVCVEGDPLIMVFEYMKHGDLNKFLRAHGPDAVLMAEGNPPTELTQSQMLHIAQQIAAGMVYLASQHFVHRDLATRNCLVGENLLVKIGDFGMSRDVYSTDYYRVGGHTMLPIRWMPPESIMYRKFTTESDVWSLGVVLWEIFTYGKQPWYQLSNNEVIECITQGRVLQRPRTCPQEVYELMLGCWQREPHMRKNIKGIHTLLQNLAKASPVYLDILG
UniProt P49674, sequence (whole entry, looked up): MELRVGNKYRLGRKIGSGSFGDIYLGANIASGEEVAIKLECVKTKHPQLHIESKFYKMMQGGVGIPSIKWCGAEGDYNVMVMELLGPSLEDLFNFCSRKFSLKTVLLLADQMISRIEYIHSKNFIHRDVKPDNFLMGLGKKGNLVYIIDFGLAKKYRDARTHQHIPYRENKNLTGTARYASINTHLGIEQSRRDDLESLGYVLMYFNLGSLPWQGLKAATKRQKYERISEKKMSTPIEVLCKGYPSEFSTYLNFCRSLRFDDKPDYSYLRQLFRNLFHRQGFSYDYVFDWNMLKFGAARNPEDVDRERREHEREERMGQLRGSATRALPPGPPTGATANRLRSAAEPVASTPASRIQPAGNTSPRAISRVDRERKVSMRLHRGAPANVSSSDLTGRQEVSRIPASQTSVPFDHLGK
UniProt P05046, sequence (whole entry, looked up): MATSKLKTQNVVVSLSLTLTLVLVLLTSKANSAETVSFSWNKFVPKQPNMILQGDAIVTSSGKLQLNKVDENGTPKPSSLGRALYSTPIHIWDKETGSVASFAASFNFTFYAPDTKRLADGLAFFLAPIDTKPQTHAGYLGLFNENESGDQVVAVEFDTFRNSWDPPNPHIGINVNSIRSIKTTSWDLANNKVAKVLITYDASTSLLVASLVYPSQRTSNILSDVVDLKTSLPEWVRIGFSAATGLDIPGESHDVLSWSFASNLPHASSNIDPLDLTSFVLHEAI

CC(=O)N[C@H]1[C@@H](O[C@H](C)[C@H](NC(C)=O)C(=O)N[C@H](C(=O)N[C@H](C(=O)NCC(=O)O)[C@@H](C)O[C@H]2O[C@H](CO)[C@H](O)[C@H](O)[C@H]2NC(C)=O)[C@@H](C)O[C@H]2O[C@H](CO)[C@H](O)[C@H](O)[C@H]2NC(C)=O)O[C@H](CO)[C@H](O)[C@@H]1O  Kd (Helix pomatia agglutinin; glycan microarray; 20 glycans per BSA): 0.0004 ± 0.0001 µM
CSCC[C@H](NC(=O)[C@H](CC(C)C)NC(=O)[C@H](C)NC(=O)[C@H](CCCNC(=N)N)NC(=O)[C@H](Cc1ccc(OP(=O)(O)O)cc1)NC(=O)[C@H](Cc1ccccc1)NC(=O)[C@H](CC(N)=O)NC(=O)[C@H](CO)NC(=O)[C@H](CC(=O)O)NC(=O)[C@@H](NC(=O)[C@@H]1CCCN1C(=O)[C@H](CO)NC(=O)[C@@H]1CCCN1C(=O)[C@H](CC(C)C)NC(=O)c1ccc2c(c1)C(=O)OC21c2ccc(N(C)C)cc2Oc2cc(N(C)C)ccc21)[C@@H](C)O)C(=O)N[C@@H](CC(=O)O)C(=O)N[C@@H](CCC(=O)O)C(=O)N[C@@H](CCC(=O)O)C(=O)N[C@@H](CC(=O)O)C(=O)O  Kd (ITK SH2 domain; binding): 0.277 µM
C[n+]1cn([C@@H]2O[C@H](COP(=O)([O-])O)[C@@H](O)[C@H]2O)c2nc(N)[nH]c(=O)c21  Kd (m7GpppX diphosphatase (DCS1, Saccharomyces cerevisiae, UniProt Q06151, H268N); binding, single-step, isothermal titration calorimetry; DcpS H268N): 1.05 µM
CC[C@H](CO)Nc1nc(NCc2ccc(-c3ccccn3)cc2)c2ncn(C(C)C)c2n1  Kd (CSNK1E (Homo sapiens, UniProt P49674); binding, competition affinity chromatography; SH-SY5Y cell extract): 5.73 µM
Nc1nc2c(ncn2[C@@H]2O[C@H](COP(=O)(O)OP(=O)(O)OP(=O)(O)O)[C@@H](O)[C@H]2O)c(=O)[nH]1  Kd (GTP 3',8-cyclase (moaA, Staphylococcus aureus, UniProt P69848, R17K); binding, isothermal titration calorimetry; 25 °C, R17K mutant, anaerobic): 0.68 ± 0.28 µM
Nc1ncnc2c1ncn2[C@@H]1O[C@H](COP(=O)(O)OP(=O)(O)NP(=O)(O)O)[C@@H](O)[C@H]1O  Kd (Cell cycle histidine kinase CckA, R374A; cytoplasmic region (Caulobacter vibrioides, UniProt Q9X688, R374A); isothermal titration calorimetry; Caulobacter crescentus; 12 °C, added: without c-di-GMP): no binding
CCC1COC(Cn2cncn2)(c2ccc(Cl)cc2Cl)O1 (centres unmarked)  Kd (Cytochrome P450 2D6 (CYP2D6, Homo sapiens, UniProt P10635); binding; 20 min, pH 7.4, purified protein, 2% DMSO): 73.3 µM
C[C@H](N)C(=O)O  Kd (tnaA (Proteus vulgaris, UniProt P28796)): 17100 ± 400 µM
O=C(O)CNC(=O)c1cccnc1  Kd (USP51 ZnF-UBD domain): > 1000 µM
CSCC[C@H](NC(=O)CNC(=O)[C@H](Cc1ccccc1)NC(=O)[C@H](CC(=O)O)NC(=O)CNC(=O)c1ccc2c(c1)C(=O)OC21c2ccc(N(C)C)cc2Oc2cc(N(C)C)ccc21)C(=O)N[C@@H](CO)C(=O)N[C@@H](CCCNC(=N)N)C(=O)N[C@@H](CC(=O)O)C(=O)N[C@H](C(=O)N[C@@H](Cc1ccc(OP(=O)(O)O)cc1)C(=O)N[C@@H](CO)C(=O)N[C@H](C(=O)N[C@@H](CC(=O)O)C(=O)N[C@@H](Cc1ccc(O)cc1)C(=O)N[C@@H](Cc1ccc(O)cc1)C(=O)N[C@@H](CCCNC(=N)N)C(=O)N[C@H](C(=O)N[C@@H](CC(=O)O)C(=O)O)C(C)C)[C@@H](C)O)C(C)C  Kd (ITK SH2 domain; binding): 0.406 µM
O=C(O)CCCN1CC=C(c2ccccc2)CC1  Kd (USP51 ZnF-UBD domain): > 1000 µM
CN(CC(=O)O)C(=N)NP(=O)(O)O  Kd (CKMT1A (Homo sapiens, UniProt P12532, E265Q); microscale thermophoresis; pH 8.5, added: ADP 1 mM): 13 ± 2 µM
CC[C@H](C)[C@H](NC(=O)[C@H](Cc1ccc(OP(=O)(O)O)cc1)NC(=O)[C@H](CCC(=O)O)NC(=O)[C@@H]1CCCN1C(=O)[C@@H](NC(=O)[C@@H]1CCCN1C(=O)[C@H](CC(C)C)NC(=O)[C@H](Cc1ccccc1)NC(=O)[C@@H](NC(=O)[C@H](CC(=O)O)NC(=O)[C@H](CC(=O)O)NC(=O)c1ccc2c(c1)C(=O)OC21c2ccc(N(C)C)cc2Oc2cc(N(C)C)ccc21)[C@@H](C)O)C(C)C)C(=O)N[C@@H](CC(N)=O)C(=O)N[C@@H](CCC(N)=O)C(=O)N[C@@H](CO)C(=O)N[C@H](C(=O)N1CCC[C@H]1C(=O)N[C@@H](CCCCN)C(=O)N[C@@H](CC(=O)O)C(=O)O)C(C)C  Kd (ITK SH2 domain; binding): 0.219 µM
O=c1c(O)c(-c2ccc(O)c(O)c2)oc2cc(O)cc(O)c12  Kd (NTRK2 (Homo sapiens, UniProt Q16620); binding, tryptophan fluorescence quenching; extracellular domain): 0.0053 ± 0.0019 µM
CCCCCCCCCC(=O)CC(=O)N[C@H]1CCOC1=O  Kd (qscR DNA-bound dimer; ligand binding, FRET displacement; protein with DNA): 0.000392 µM
CC[C@H](C)[C@H](NC(=O)[C@H](Cc1ccc(OP(=O)(O)O)cc1)NC(=O)[C@H](CCC(=O)O)NC(=O)[C@H](Cc1c[nH]cn1)NC(=O)CNC(=O)[C@H](CC(=O)O)NC(=O)[C@H](CO)NC(=O)[C@H](CO)NC(=O)[C@@H](NC(=O)[C@H](CO)NC(=O)[C@H](CCC(=O)O)NC(=O)c1ccc2c(c1)C(=O)OC21c2ccc(N(C)C)cc2Oc2cc(N(C)C)ccc21)C(C)C)C(=O)N[C@@H](Cc1ccc(O)cc1)C(=O)N[C@H](C(=O)N[C@@H](CC(=O)O)C(=O)N1CCC[C@H]1C(=O)N[C@@H](CCSC)C(=O)N[C@@H](CCC(N)=O)C(=O)N[C@@H](CC(=O)O)C(=O)O)C(C)C  Kd (BCAR3 SH2 domain; binding): 1.54 µM
N=C(N)NCCC[C@H](N)C(=O)O  Kd (uncharacterized protein (Pelagibacter ubique, UniProt Q4FLC2); binding, competition ITC; two-sets-of-sites model): ~3e-05 µM
CC(=O)N[C@H]1[C@@H](O[C@H](C)[C@H](NC(=O)[C@H](CO)NC(C)=O)C(=O)N[C@@H](CO)C(=O)NCC(=O)O)O[C@H](CO)[C@H](O)[C@@H]1O  Kd (LE1 (Glycine max, UniProt P05046); glycan microarray; 4 glycans per BSA): 0.055 ± 0.026 µM
CC[C@H](C)[C@H](NC(=O)[C@H](CC(=O)O)NC(=O)[C@H](C)NC(=O)[C@H](Cc1ccc(OP(=O)(O)O)cc1)NC(=O)[C@H](CCCCN)NC(=O)[C@@H](NC(=O)[C@H](CC(=O)O)NC(=O)CNC(=O)[C@H](CCCCN)NC(=O)[C@H](CCSC)NC(=O)[C@H](CC(=O)O)NC(=O)[C@H](CC(C)C)NC(=O)[C@H](CCSC)NC(=O)c1ccc2c(c1)C(=O)OC21c2ccc(N(C)C)cc2Oc2cc(N(C)C)ccc21)C(C)C)C(=O)N[C@@H](CCC(=O)O)C(=O)N[C@@H](CO)C(=O)N[C@@H](CO)C(=O)N[C@@H](CC(N)=O)C(=O)N[C@@H](CC(=O)O)C(=O)O  Kd (ABL2 SH2 domain; binding): 0.108 µM
O=C(CCCOc1ccc(Cl)cc1)NC1CCOC1=O (centres unmarked)  Kd (qscR, DNA-bound (Pseudomonas aeruginosa, UniProt G3XD77); DNA binding, ligand, EMSA; 4 °C, saturating ligand): 0.0079 µM
CC[C@H](C)[C@H](NC(=O)[C@H](CC(=O)O)NC(=O)[C@H](C)NC(=O)[C@H](Cc1ccc(O)cc1)NC(=O)[C@H](CCCCN)NC(=O)c1ccc2c(c1)C(=O)OC21c2ccc(N(C)C)cc2Oc2cc(N(C)C)ccc21)C(=O)N[C@@H](CCC(=O)O)C(=O)N[C@@H](CO)C(=O)N[C@@H](CO)C(=O)N[C@@H](CC(N)=O)C(=O)N[C@@H](Cc1ccc(OP(=O)(O)O)cc1)C(=O)N[C@@H](CCSC)C(=O)N[C@@H](C)C(=O)N1CCC[C@H]1C(=O)N[C@@H](Cc1ccc(O)cc1)C(=O)N[C@@H](CC(=O)O)C(=O)N[C@@H](CC(N)=O)C(=O)N[C@@H](Cc1ccc(O)cc1)C(=O)N[C@@H](CC(=O)O)C(=O)O  Kd (ABL2 SH2 domain; binding): 0.014 µM
CC(=O)N[C@H]1[C@@H](OC[C@H](NC(C)=O)C(=O)N[C@@H](CO[C@H]2O[C@H](CO)[C@H](O)[C@H](O)[C@H]2NC(C)=O)C(=O)N[C@@H](CO[C@H]2O[C@H](CO)[C@H](O)[C@H](O)[C@H]2NC(C)=O)C(=O)NCC(=O)O)O[C@H](CO)[C@H](O)[C@@H]1O  Kd (Vicia villosa lectin; glycan microarray; 3 glycans per BSA): 0.0016 ± 0.0003 µM
CC(C)C[C@H](NC(=O)[C@@H](NC(=O)[C@H](CO)NC(=O)[C@H](CO)NC(=O)[C@@H](NC(=O)[C@H](CC(=O)O)NC(=O)[C@H](CC(C)C)NC(=O)[C@@H]1CCCN1C(=O)[C@H](CO)NC(=O)c1ccc2c(c1)C(=O)OC21c2ccc(N(C)C)cc2Oc2cc(N(C)C)ccc21)[C@@H](C)O)C(C)C)C(=O)N[C@@H](Cc1ccc(OP(=O)(O)O)cc1)C(=O)N[C@H](C(=O)N[C@@H](C)C(=O)N[C@H](C(=O)N[C@@H](CCC(N)=O)C(=O)N1CCC[C@H]1C(=O)N[C@@H](CC(N)=O)C(=O)N[C@@H](CCC(=O)O)C(=O)N[C@@H](CC(=O)O)C(=O)O)C(C)C)[C@@H](C)O  Kd (BCAR3 SH2 domain; binding): 1.64 µM
CCCCCCCCCC(=O)CC(=O)Nc1ccccc1  Kd (qscR DNA-bound dimer; ligand binding, FRET displacement; protein with DNA): 0.283 µM
CC[C@H](C)[C@H](NC(=O)[C@H](Cc1ccc(O)cc1)NC(=O)[C@H](CCC(=O)O)NC(=O)[C@H](Cc1c[nH]cn1)NC(=O)CNC(=O)[C@H](CC(=O)O)NC(=O)[C@H](CO)NC(=O)[C@H](CO)NC(=O)[C@@H](NC(=O)c1ccc2c(c1)C(=O)OC21c2ccc(N(C)C)cc2Oc2cc(N(C)C)ccc21)C(C)C)C(=O)N[C@@H](Cc1ccc(OP(=O)(O)O)cc1)C(=O)N[C@H](C(=O)N[C@@H](CC(=O)O)C(=O)N1CCC[C@H]1C(=O)N[C@@H](CCSC)C(=O)N[C@@H](CCC(N)=O)C(=O)N[C@@H](CC(C)C)C(=O)N1CCC[C@H]1C(=O)N[C@@H](CC(=O)O)C(=O)O)C(C)C  Kd (ITK SH2 domain; binding): 0.863 µM
Nc1ncnc2c1ncn2[C@@H]1O[C@H](COP(=O)(O)O)[C@@H](O)[C@H]1O  Kd (Thermonuclease, denatured (nuc, Staphylococcus aureus, UniProt P00644); binding; pH 7): 3300 µM

Some of these lines once more:
CC[C@H](C)[C@H](NC(=O)[C@H](CC(=O)O)NC(=O)[C@H](C)NC(=O)[C@H](Cc1ccc(OP(=O)(O)O)cc1)NC(=O)[C@H](CCCCN)NC(=O)[C@@H](NC(=O)[C@H](CC(=O)O)NC(=O)CNC(=O)[C@H](CCCCN)NC(=O)[C@H](CCSC)NC(=O)[C@H](CC(=O)O)NC(=O)[C@H](CC(C)C)NC(=O)[C@H](CCSC)NC(=O)c1ccc2c(c1)C(=O)OC21c2ccc(N(C)C)cc2Oc2cc(N(C)C)ccc21)C(C)C)C(=O)N[C@@H](CCC(=O)O)C(=O)N[C@@H](CO)C(=O)N[C@@H](CO)C(=O)N[C@@H](CC(N)=O)C(=O)N[C@@H](CC(=O)O)C(=O)O  Kd (ABL2 SH2 domain; binding): 0.108 µM
O=C(CCCOc1ccc(Cl)cc1)NC1CCOC1=O (centres unmarked)  Kd (qscR, DNA-bound (Pseudomonas aeruginosa, UniProt G3XD77); DNA binding, ligand, EMSA; 4 °C, saturating ligand): 0.0079 µM
CC[C@H](C)[C@H](NC(=O)[C@H](CC(=O)O)NC(=O)[C@H](C)NC(=O)[C@H](Cc1ccc(O)cc1)NC(=O)[C@H](CCCCN)NC(=O)c1ccc2c(c1)C(=O)OC21c2ccc(N(C)C)cc2Oc2cc(N(C)C)ccc21)C(=O)N[C@@H](CCC(=O)O)C(=O)N[C@@H](CO)C(=O)N[C@@H](CO)C(=O)N[C@@H](CC(N)=O)C(=O)N[C@@H](Cc1ccc(OP(=O)(O)O)cc1)C(=O)N[C@@H](CCSC)C(=O)N[C@@H](C)C(=O)N1CCC[C@H]1C(=O)N[C@@H](Cc1ccc(O)cc1)C(=O)N[C@@H](CC(=O)O)C(=O)N[C@@H](CC(N)=O)C(=O)N[C@@H](Cc1ccc(O)cc1)C(=O)N[C@@H](CC(=O)O)C(=O)O  Kd (ABL2 SH2 domain; binding): 0.014 µM
